Measured values gathered from unrelated publications.
FGFR3 isoform IIIc: FGFR3 isoform IIIc (unknown, UniProt Q61851)
UniProt Q61851, sequence (whole entry, looked up): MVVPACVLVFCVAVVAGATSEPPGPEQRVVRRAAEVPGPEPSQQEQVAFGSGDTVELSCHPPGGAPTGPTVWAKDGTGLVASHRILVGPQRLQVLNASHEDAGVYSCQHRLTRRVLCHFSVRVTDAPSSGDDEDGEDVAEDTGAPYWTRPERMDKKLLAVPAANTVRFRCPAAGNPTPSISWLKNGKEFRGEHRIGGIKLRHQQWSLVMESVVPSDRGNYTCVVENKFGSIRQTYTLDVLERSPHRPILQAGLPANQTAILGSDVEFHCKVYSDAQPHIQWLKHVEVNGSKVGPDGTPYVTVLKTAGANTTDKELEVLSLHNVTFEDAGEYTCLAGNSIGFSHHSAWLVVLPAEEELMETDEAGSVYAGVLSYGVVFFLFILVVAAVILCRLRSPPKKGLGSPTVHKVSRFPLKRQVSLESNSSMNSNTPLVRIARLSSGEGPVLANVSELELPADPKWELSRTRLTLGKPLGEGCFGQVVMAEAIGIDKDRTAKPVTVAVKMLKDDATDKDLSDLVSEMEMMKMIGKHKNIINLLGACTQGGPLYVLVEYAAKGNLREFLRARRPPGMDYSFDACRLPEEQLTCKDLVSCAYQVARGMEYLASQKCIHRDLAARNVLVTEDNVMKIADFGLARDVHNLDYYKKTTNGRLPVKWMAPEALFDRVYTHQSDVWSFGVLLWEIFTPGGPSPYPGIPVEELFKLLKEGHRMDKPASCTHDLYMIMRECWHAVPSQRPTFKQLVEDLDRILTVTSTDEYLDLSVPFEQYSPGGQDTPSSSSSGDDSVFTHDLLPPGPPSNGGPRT
B1: RGS16 (Homo sapiens, UniProt O15492); sequence looked up; chain MCRTLAAFPTTCLERAKEFKTRLGIFLHKSELGCDTGSTGKFEWGSKHSKENRNFSEDVLGWRESFDLLLSSKNGVAAFHAFLKTEFSEENLEFWLACEEFKKIRSATKLASRAHQIFEEFICSEAPKEVNIDHETHELTRMNLQTATATCFDAAQGKTRTLMEKDSYPRFLKSPAYRDLAAQASAASATLSSCSLDEPSHT
B2: TIMP3 24-144 (Homo sapiens, UniProt P35625); sequence looked up; chain CTCSPSHPQDAFCNSDIVIRAKVVGKKLVKEGPFGTLVYTIKQMKMYRGFTKMPHVQYIHTEASESLCGLKLEVNKYQYLLTGRVYDGKMYTGLCNFVERWDQLTLSQRKGLNYRYHLGCN
B3: LILRB4/rat CD4 d3+4 extracellular domain 24-238 (Mus musculus); sequence looked up; chain GHLPKPIIWAEPGSVIAAYTSVITWCQGSWEAQYYHLYKEKSVNPWDTQVPLETRNKAKFNIPSMTTSYAGIYKCYYESAAGFSEHSDAMELVMTGAYENPSLSVYPSSNVTSGVSISFSCSSSIVFGRFILIQEGKHGLSWTLDSQHQANQPSYATFVLDAVTPNHNGTFRCYGYFRNEPQVWSKPSNSLDLMISETKDQSSTPTEDGLETYQK
B4: UGT1A9 (Homo sapiens, UniProt O60656); chain GKLLVVPMDGSHWFTMRSVVEKLILRGHEVVVVMPEVSWQLGRSLNCTVKTYSTSYTLEDLDREFKAFAHAQWKAQVRSIYSLLMGSYNDIFDLFFSNCRSLFKDKKLVEYLKESSFDAVFLDPFDNCGLIVAKYFSLPSVVFARGILCHYLEEGAQCPAPLSYVPRILLGFSDAMTFKERVRNHIMHLEEHLLCHRFFKNALEIASEILQTPVTEYDLYSHTSIWLLRTDFVLDYPKPVMPNMIFIGGINCHQGKPLPMEFEAYINASGEHGIVVFSLGSMVSEIPEKKAMAIADALGKIPQTVLWRYTGTRPSNLANNTILVKWLPQNDLLGHPMTRAFITHAGSHGVYESICNGVPMVMMPLFGDQMDNAKRMETKGAGVTLNVLEMTSEDLENALKAVINDKSYKENIMRLSSLHKDRPVEPLDLAVFWVEFVMRHKGAPHLRPAAHDLTWYQYHSLDVIGFLLAVVLTVAFITFKCCAYGYRKCLGKKGRVKKAHKSKTH
UniProt P31266, sequence (whole entry, unmodified, looked up): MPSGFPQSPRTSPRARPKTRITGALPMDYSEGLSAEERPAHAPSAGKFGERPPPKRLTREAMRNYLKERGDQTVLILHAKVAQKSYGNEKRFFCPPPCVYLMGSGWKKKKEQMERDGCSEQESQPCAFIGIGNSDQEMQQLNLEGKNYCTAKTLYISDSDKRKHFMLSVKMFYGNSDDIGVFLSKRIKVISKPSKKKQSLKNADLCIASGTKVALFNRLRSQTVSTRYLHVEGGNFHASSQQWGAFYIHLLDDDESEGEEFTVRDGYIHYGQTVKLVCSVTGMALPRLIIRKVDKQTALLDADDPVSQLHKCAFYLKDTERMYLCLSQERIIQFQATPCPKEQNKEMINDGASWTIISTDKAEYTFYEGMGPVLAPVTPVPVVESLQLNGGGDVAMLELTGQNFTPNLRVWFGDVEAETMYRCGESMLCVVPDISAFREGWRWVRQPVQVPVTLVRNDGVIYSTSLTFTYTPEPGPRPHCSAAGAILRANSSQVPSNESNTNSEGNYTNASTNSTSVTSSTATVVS
UniProt P28630, sequence (whole entry, looked up): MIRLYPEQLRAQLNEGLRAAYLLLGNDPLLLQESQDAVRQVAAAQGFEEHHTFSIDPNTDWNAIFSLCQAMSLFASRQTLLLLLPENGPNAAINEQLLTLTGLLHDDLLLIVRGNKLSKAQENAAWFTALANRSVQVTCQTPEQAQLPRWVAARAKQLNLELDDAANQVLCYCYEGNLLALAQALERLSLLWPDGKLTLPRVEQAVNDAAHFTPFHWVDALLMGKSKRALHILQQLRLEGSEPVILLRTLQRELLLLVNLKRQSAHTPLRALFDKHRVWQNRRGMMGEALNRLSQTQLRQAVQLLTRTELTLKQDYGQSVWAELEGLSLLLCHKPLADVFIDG
UniProt P55075, sequence (whole entry, looked up): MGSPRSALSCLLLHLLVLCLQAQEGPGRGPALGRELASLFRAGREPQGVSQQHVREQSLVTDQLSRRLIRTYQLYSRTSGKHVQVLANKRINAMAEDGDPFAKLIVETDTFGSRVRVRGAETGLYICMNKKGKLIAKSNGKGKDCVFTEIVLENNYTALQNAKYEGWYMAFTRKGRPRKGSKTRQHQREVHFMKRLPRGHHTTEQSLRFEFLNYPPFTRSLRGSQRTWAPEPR
UniProt P63096, sequence (whole entry, unmodified, looked up): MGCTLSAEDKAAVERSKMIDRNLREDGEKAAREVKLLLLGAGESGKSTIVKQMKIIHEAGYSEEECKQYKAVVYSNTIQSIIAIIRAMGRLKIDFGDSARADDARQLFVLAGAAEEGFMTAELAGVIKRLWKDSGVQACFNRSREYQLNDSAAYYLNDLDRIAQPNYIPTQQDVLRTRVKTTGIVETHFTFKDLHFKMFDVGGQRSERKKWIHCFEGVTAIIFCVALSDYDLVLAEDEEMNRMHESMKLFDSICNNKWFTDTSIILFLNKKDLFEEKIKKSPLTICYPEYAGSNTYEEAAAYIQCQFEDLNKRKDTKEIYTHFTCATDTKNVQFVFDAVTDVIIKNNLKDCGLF
UniProt O75173, sequence (whole entry, looked up): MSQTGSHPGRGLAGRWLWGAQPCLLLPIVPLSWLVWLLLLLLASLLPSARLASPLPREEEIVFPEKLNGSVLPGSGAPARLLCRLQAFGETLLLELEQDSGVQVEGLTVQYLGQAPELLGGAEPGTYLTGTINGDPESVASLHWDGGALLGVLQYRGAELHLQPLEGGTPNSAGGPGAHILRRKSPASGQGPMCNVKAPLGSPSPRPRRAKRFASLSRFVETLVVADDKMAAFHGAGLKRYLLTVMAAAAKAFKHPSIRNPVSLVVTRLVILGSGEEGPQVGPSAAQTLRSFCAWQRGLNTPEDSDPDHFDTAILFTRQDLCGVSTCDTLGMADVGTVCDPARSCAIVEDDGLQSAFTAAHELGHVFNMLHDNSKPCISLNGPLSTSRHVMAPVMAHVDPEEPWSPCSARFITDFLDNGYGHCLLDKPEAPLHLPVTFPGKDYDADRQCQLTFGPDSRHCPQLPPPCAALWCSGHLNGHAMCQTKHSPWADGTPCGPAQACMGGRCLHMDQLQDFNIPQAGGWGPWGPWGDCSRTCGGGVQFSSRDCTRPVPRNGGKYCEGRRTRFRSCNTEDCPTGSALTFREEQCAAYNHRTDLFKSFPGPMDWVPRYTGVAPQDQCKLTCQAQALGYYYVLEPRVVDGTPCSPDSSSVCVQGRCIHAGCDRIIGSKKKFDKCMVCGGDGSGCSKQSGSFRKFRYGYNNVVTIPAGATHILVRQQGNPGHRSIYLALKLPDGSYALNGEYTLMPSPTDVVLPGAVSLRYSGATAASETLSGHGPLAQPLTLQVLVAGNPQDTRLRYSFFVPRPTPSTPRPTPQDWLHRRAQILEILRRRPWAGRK
UniProt Q12798, sequence (whole entry, unmodified, looked up): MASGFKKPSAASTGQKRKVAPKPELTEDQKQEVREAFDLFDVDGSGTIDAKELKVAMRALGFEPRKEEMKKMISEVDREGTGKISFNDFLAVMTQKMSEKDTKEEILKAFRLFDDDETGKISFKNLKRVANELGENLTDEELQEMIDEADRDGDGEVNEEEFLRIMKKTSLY
UniProt P70618, sequence (whole entry, looked up): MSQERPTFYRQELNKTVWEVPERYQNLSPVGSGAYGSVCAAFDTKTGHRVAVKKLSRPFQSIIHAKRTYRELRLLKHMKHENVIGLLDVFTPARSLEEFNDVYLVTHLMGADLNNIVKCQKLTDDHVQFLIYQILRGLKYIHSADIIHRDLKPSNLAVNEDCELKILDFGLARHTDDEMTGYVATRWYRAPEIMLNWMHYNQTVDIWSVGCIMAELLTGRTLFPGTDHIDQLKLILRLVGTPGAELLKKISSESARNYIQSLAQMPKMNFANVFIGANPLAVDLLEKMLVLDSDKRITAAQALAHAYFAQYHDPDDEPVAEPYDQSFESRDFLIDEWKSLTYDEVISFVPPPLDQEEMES

`YANQLKFRKKKLKFCK (SETD1B D-site peptide (Homo sapiens))` gave an IC50 of 7.8 µM (Mapk14, pT180, pY182 (Rattus norvegicus, UniProt P70618); kinase activity, inhibitor, competitive kinase inhibition assay; peptide; added: ATP 1 mM).
`holA (Escherichia coli, UniProt P28630)` — result for “concentration for unloading”: 146 nM (dnaN dimer (Escherichia coli); unloading of 32P-β from DNA; 50%, 10 min).
`Ac-NWKLLAKGLLIRERLKR-NH2 (XPC 847-863 (Homo sapiens); N-acetyl; C-terminal amide)` gave a ΔH of -34.6 kcal/mol (CETN1, phosphothreonine (Homo sapiens, UniProt Q12798); ITC; peptide; pH 7.5, 30 °C, one-site model, added: CaCl2 1 mM).
`FGF8 (Homo sapiens, UniProt P55075)` has a cell proliferation of 34% (FGFR3 isoform IIIc; cell proliferation, MTT; BaF3-FGFR3c; 20 nM, 48 h, added: chondroitin sulfate A 4.9 µg/mL; relative to: FGF 1 with heparin, higher = more proliferation).
`MENVKKATATTWMVPTAQ (L3MBTL3 52-70 del62 (Homo sapiens, UniProt Q96JM7-2); sequence looked up)` has a ΔH of -12.7 kcal/mol (Rbpj 53-474 (Mus musculus, UniProt P31266); ITC; peptide; pH 6.5, 25 °C, NaCl 150 mM).
`B1 (RGS16)` has a GAP factor of 12 fold (GNAI1 R178M/A326S (Homo sapiens, UniProt P63096); GTPase rate, Transcreener GDP assay; 250 nM; relative to: basal rate, higher = faster hydrolysis).
`B2 (TIMP3 24-144)` has a Ki of 0.00019 µM (ADAMTS4 213-837 (Homo sapiens, UniProt O75173); inhibitor, steady-state kinetics; 1 h, 37 °C, apparent).
For `BCR/ABL1 fusion (Homo sapiens)`, “time to half-maximal phosphorylation” read < 2 min (Abltide-p40 fusion Abltide at N-terminus; substrate phosphorylation; K-562, lysate; competing substrates; lower = faster).
The response of `B3` is reported as 250 RU (LAIR1/rat CD4 d3+4 extracellular domain 22-165 (Homo sapiens); SPR; multivalent bead assay).
`ADM mature (Homo sapiens)` — result for “cAMP decay rate”: 0.4 min⁻¹ (CALCRL/RAMP2 whole, on cells (Homo sapiens); cAMP, antagonist, CAMYEL BRET; COS-7; 100 nM agonist).
`F8 A2 subunit D519V/E665V (Homo sapiens)` — result for “endogenous thrombin potential”: 1310 nM·min (F8 A1/A3C1C2 dimer (Homo sapiens); thrombin generation; FVIII-deficient plasma; 0.13 nM).
For `B4 (UGT1A9)`, the Vmax was 0.000118 µmol/min/mg (O=c1cc(-c2ccccc2)oc2cccc(O)c12; steady-state kinetics; pH 7.4, 37 °C).
With `FGF8b (Homo sapiens)` the cell proliferation was 105% (FGFR3 isoform IIIc; cell proliferation, MTT; BaF3-FGFR3c; 20 nM, 48 h, added: heparin 4.9 µg/mL; relative to: FGF 1 with heparin, higher = more proliferation).

A few entries again:
`B2 (TIMP3 24-144)` has a Ki of 0.00019 µM (ADAMTS4 213-837 (Homo sapiens, UniProt O75173); inhibitor, steady-state kinetics; 1 h, 37 °C, apparent).
